Assay results of several laboratories.
± marks the error that the study gave. Values after ≈ are worked out from the molar mass of the structure shown.

SMILES | organism | assay | test system | conditions | how to read | endpoint | result
Fc1cccc(COc2ccc(Nc3ncnc4ccc(-c5cccc(N6CCCCC6)c5)cc34)cc2Cl)c1 | Trypanosoma cruzi | intracellular amastigote growth, β-galactosidase CPRG | 3T3, Tulahuen, β-galactosidase-expressing | 10 µM, 96 h |  | inhibition | 24%
CC(C)[C@H]1NC(=O)[C@H](Cc2ccccc2)NC(=O)[C@@H](C(C)C)NC(=O)[C@@H](C)NC(=O)[C@H](CO)NC(=O)[C@@H](Cc2c(-c3ccc(-c4ccccc4)cc3)[nH]c3ccccc23)NC(=O)[C@@H](CO)NC1=O | Mycobacterium marinum |  |  |  |  | MIC90 | 53.8 µM (≈ 50 µg/mL)
CCC1(CC)CC(=O)N(C2c3cc(C(=O)NC4c5ccccc5CC4O)ccc3OC2(C)COC)C(=N)N1 (stereo not drawn) | Plasmodium falciparum | parasite growth | K1 |  |  | EC50 | 0.4 ± 0.2 nM
Cc1cc(C(=O)Nc2nc3cccc(C)c3n2[C@H]2CCCCN(C(=O)/C=C/CN(C)C)C2)ccn1 | Trypanosoma brucei |  | STIB795, mouse acute HAT model | oral, 2.5 mg/kg once daily for 4 days, day 5 | relative to: mice | survival | 83.3%
CCN1CCN(Cc2ccc(CNc3nc(N(C)C)nc(N(C)C)c3/N=N/c3ccc(Cl)cc3)cc2)CC1 | Ostrinia furnacalis | leaf dipping |  | 200 mg/L, 96 h |  | mortality | 86.7 ± 5.8%
CC1(C)C(NC(=O)C(=NOC2(C(=O)O)CC2)c2csc(N)n2)C(=O)N1OS(=O)(=O)O (stereo not drawn) | Klebsiella pneumoniae |  | ATCC BAA-2146, NDM-1, ICR mice, systemic lethal infection | intravenous, 32 mg/kg, 7 days |  | survival rate | 60%
CNCCO.O=C(O)C(Cl)Cl | Solanum nigrum | herbicidal activity |  | 15 mg/mL, 21 days, post-emergence greenhouse |  | inhibition | 0%
Cc1ccc2[nH]c3c(c2c1)CCCC3NCCCc1ccccc1 (stereo not drawn) | Streptococcus pneumoniae |  |  | concentration not given, 10% fetal bovine serum | relative to: without serum | MIC fold change | 4
COc1ccc(C2=[N+]([O-])c3ccccc3N3CC(C)(C)CN=C23)cc1 | Clostridioides difficile | microbial growth |  |  |  | MIC50 | 2 µg/mL (≈ 5.96 µM)
COc1ccc(Cn2c3cc(=O)n(Cc4cccc(Cl)n4)c(C)c3c(=O)n2-c2ccccn2)cc1 | human respiratory syncytial virus |  | recombinant reporter virus | concentration not given, scale 0 to 100, with: adenosine 3.7 µM |  | normalized viral replication | 0
CC[C@H](C)[C@H](NC(=O)[C@H](C)NC(=O)CNC(=O)[C@H](C)NC(=O)[C@H](CCCCN)NC(=O)[C@H](CO)NC(=O)[C@H](C)NC(=O)[C@H](CCSC)NC(=O)CN)C(=O)N[C@@H](C)C(=O)NCC(=O)N[C@@H](CCCCN)C(=O)N[C@H](C(=O)N[C@@H](C)C(=O)N[C@@H](CCCCN)C(=O)N[C@H](C(=O)N[C@@H](C)C(=O)N[C@@H](CC(C)C)C(=O)N[C@@H](CCCCN)C(=O)N[C@@H](C)C(=O)N[C@@H](CC(C)C)C(N)=O)C(C)C)[C@@H](C)CC | Escherichia coli |  | 0370 wild type | at EC90, mean of ratios, with: ampicillin |  | combination index | 1.3
CC(C)[C@H]1NC(=O)[C@H](Cc2ccc(O)cc2)NC(=O)[C@@H](C(C)C)NC(=O)[C@@H](C)NC(=O)[C@H](CO)NC(=O)[C@@H](Cc2c(-c3ccc(-c4ccc(-c5ccccc5)cc4)cc3)[nH]c3ccccc23)NC(=O)[C@@H](CO)NC1=O | Mycobacterium marinum |  |  |  |  | MIC90 | 39.2 µM (≈ 40 µg/mL)
